Published values gathered from unrelated publications.
Each line is one published result; not all experiments were run side by side. ± gives the spread as reported.
HapB/HapC/HapE/HapX HapX 24-158: HapB/HapC/HapE/HapX HapX 24-158 (Aspergillus fumigatus)
Aspartate aminotransferase: Aspartate aminotransferase (Streptococcus pneumoniae, UniProt Q8DNN5)
B1: colicin E1 residues 100–190; sequence looked up; chain EALRHNASRTPSATELAHANNAAMQAEDERLRLAKAEEKARKEAEAAEKAFQEAEQRRKEIEREKAETERQLKLAEAEEKRLAALSEEAKA
UniProt Q6XEC0, sequence (whole entry, looked up): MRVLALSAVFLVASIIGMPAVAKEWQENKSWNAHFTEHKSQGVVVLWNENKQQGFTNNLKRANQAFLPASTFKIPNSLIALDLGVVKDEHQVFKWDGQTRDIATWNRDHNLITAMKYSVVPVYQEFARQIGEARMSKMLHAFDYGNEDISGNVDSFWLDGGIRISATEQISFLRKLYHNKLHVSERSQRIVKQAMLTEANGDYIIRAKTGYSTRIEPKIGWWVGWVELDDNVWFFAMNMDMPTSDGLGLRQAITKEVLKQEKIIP

For `AGTTTGACCAATCAGTAATAATTTATTGTCATCAAGT (dsDNA)`, the Kd was 1.71 nM (HapB/HapC/HapE/HapX HapX 24-158; SPR; double-stranded DNA, one strand shown; HapX on preformed CBC:DNA).
For `N=C(N)NCCC[C@@H]1NC(=O)[C@H](CCCCNC(=O)CNC(=O)CNC(=O)CNC(=O)CC[C@H](NC(=O)CCOCCOCCOCCOCCNC(=O)c2ccc(NN)nc2)C(=O)NCC(=O)NCC(=O)NCC(=O)NCCCC[C@@H]2NC(=O)[C@@H](Cc3ccccc3)NC(=O)[C@H](CC(=O)O)NC(=O)CNC(=O)[C@H](CCCNC(=N)N)NC2=O)NC(=O)[C@@H](Cc2ccccc2)NC(=O)[C@H](CC(=O)O)NC(=O)CNC1=O` [technetium-99m labelled], the tissue uptake was 0.56 ± 0.13 %ID/g (γ-counting; female athymic nude mice, U-87 MG xenograft, blood; intravenous, 1 h).
With `CC(=O)N(O)CCCCCNC(=O)CCC(=O)N(O)CCCCCNC(=O)CCC(=O)N(O)CCCCCNC(=S)Nc1ccc(NC(=S)NCCOCCOCCOCCOCCC(=O)N[C@@H](CCC(=O)NCCOCCOCCOCCOCCC(=O)NCCCC[C@@H]2NC(=O)[C@@H](Cc3ccccc3)NC(=O)[C@H](CC(=O)O)NC(=O)CNC(=O)[C@H](CCCNC(=N)N)NC2=O)C(=O)NCCOCCOCCOCCOCCC(=O)NCCCC[C@@H]2NC(=O)[C@@H](Cc3ccccc3)NC(=O)[C@H](CC(=O)O)NC(=O)CNC(=O)[C@H](CCCNC(=N)N)NC2=O)cc1` [zirconium-89 labelled] the tissue uptake was 0.4 ± 0.01 %ID/g (athymic nude mice female tumour-bearing, tumor; intravenous, dose not given, 4 h, together with: unlabelled c(RGDfK) 300 µg).
`N=C(N)NCCC[C@@H]1NC(=O)[C@H](CCCCNC(=S)Nc2ccc(C[C@H]3CN(CC(=O)O)CCN(CC(=O)O)CCN3CC(=O)O)cc2)NC(=O)[C@@H](Cc2ccc(O)cc2)NC(=O)[C@H](CC(=O)O)NC(=O)CNC1=O` [gallium-68 labelled] has a tumour uptake of 3.24 ± 0.41 %ID/g (PET; SCID mouse, PC-3 tumour; 25 to 30 min p.i.).
For `N=C(N)NCCC[C@@H]1NC(=O)[C@H](CCCCNC(=O)[C@H](CC(=O)O)NC(=O)[C@H](CC(=O)O)NC(=O)[C@H](CC(=O)O)NC(=O)CC[C@H](NC(=O)CCOCCOCCOCCOCCNC(=O)c2ccc(NN)nc2)C(=O)N[C@@H](CC(=O)O)C(=O)N[C@@H](CC(=O)O)C(=O)N[C@@H](CC(=O)O)C(=O)NCCCC[C@@H]2NC(=O)[C@@H](Cc3ccccc3)NC(=O)[C@H](CC(=O)O)NC(=O)CNC(=O)[C@H](CCCNC(=N)N)NC2=O)NC(=O)[C@@H](Cc2ccccc2)NC(=O)[C@H](CC(=O)O)NC(=O)CNC1=O` [technetium-99m labelled], the tissue uptake was 0.14 ± 0.01 %ID/g (U-87 MG xenograft athymic nude mice, spleen; intravenous, 60 min, together with: RGD2 14 mg/kg co-injected).
`melittin` has a helical residues of 18 to 19 amino acids (circular dichroism; lipid membrane; 25 °C).
`CC(C)C[C@@H]1NC(=O)[C@@H]2CSSC[C@@H](C(=O)NCC(N)=O)NC(=O)[C@H](Cc3ccccc3)NC(=O)CNC(=O)[C@H](CC(N)=O)NC(=O)[C@@H]3CCCN3C(=O)CNC(=O)[C@@H]3CSSC[C@H](NC(=O)[C@H]([C@@H](C)O)NC(=O)[C@H](CC(C)C)NC(=O)[C@@H]4CCCN4C(=O)[C@@H]4CCCN4C(=O)[C@H](CC(N)=O)NC(=O)[C@H](CC(=O)O)NC(=O)CNC(=O)[C@H](CCCNC(=N)N)NC(=O)[C@@H]4CCCN4C(=O)[C@H](CCCNC(=N)N)NC(=O)[C@@H]4CCCN4C(=O)[C@@H](NC(=O)CNC(=O)CN4CCN(CC(=O)O)CCN(CC(=O)O)CCN(CC(=O)O)CC4)CSSC[C@H](NC(=O)CNC(=O)[C@H](C)NC1=O)C(=O)N[C@@H](C(C)C)C(=O)N3)C(=O)N[C@@H](CO)C(=O)N[C@@H](CCC(N)=O)C(=O)N[C@@H](CC(=O)O)C(=O)N[C@@H](CO)C(=O)N[C@@H](CC(=O)O)C(=O)N2` [copper-64 labelled] gave a tumour uptake of 2.36 %ID/g (PET; mouse, transgenic lung tumour model, lung tumour; intravenous, 60 min).
With `CCN1C(=CC=CC=CC2=[N+](CCCCCC(=O)NCCCC[C@H](NC(=O)CN3CCN(CC(=O)O)CCN(CC(=O)O)CCN(CC(=O)O)CC3)C(=O)NCC(=O)NCC(=O)N[C@@H](Cc3ccc(O)cc3)C(=O)NCC(=O)N[C@H]3CSSC[C@@H]4NC(=O)CNC(=O)[C@H](C)NC(=O)[C@H](CC(C)C)NC(=O)[C@@H]5CSSC[C@@H](C(=O)NCC(N)=O)NC(=O)[C@H](Cc6ccccc6)NC(=O)CNC(=O)[C@H](CC(N)=O)NC(=O)[C@@H]6CCCN6C(=O)CNC(=O)[C@H](CSSC[C@H](NC(=O)[C@H](CO)NC(=O)[C@H]([C@@H](C)O)NC(=O)[C@@H]6CCCN6C(=O)[C@H](C)NC(=O)[C@H](Cc6c[nH]c7ccccc67)NC(=O)[C@H](CC(=O)O)NC(=O)CNC(=O)[C@H](CCCNC(=N)N)NC(=O)CNC(=O)[C@H](CCC(N)=O)NC(=O)[C@@H]6CCCN6C3=O)C(=O)N[C@@H](CO)C(=O)N[C@@H](CCC(N)=O)C(=O)N[C@@H](CC(=O)O)C(=O)N[C@@H](CO)C(=O)N[C@@H](CC(=O)O)C(=O)N5)NC(=O)[C@H](C(C)C)NC4=O)c3ccc4c(S(=O)(=O)[O-])cc(S(=O)(=O)O)cc4c3C2(C)C)C(C)(C)c2c1ccc1c(S(=O)(=O)O)cc(S(=O)(=O)O)cc21` (single isomer, unassigned) [copper-64 labelled] the tumour uptake was 1 to 1.5 %ID/g (microPET; athymic nude mouse, female, U-87 MG xenograft, tumour; intravenous, 1 to 24 h, together with: c(RGDyK) 0.5 µmol blocking).
With `CC(C)[C@H](NC(=O)[C@@H](NC(=O)CCOCCOCCNC(=O)CCCc1cn(CC(O)CN2CCN(CC(=O)O)CCN(CC(=O)O)CCN(CC(=O)O)CC2)nn1)[C@@H](C)O)C(=O)N[C@@H](CCCNC(=N)N)C(=O)N[C@H](C(=O)N[C@@H](CO)C(=O)N[C@@H](C)C(=O)N[C@@H](CC(=O)O)C(=O)O)[C@@H](C)O` (stereo partly drawn) the tumour concentration was 20.2 ± 2.2 µM (quantitative T1 mapping; athymic nude mouse, male, LNCaP xenograft, tumour; concentration not given, 30 min post-injection).
`Cc1ccccc1NC(=O)Nc1ccc(CC(=O)N[C@@H](CCCCNC(=O)/C=C/c2cccnc2)C(=O)N[C@@H](CCCC(=O)O)C(=O)NC2(C(=O)NCCOCCOCCOCCOCC(=O)N[C@@H](CCCCNC(=S)Nc3ccc(C[C@H]4CN(CC(=O)O)CCN(CC(=O)O)CCN4CC(=O)O)cc3)C(N)=O)CCCCC2)cc1` [fluorine-18 labelled] gave a tissue uptake of 4.47 ± 0.37 %ID/g (female C57BL/6 mice, B16-F10 tumour, bone; intravenous, 0.5 h).
`B1 (colicin E1 residues 100–190)` gave a helical content of 71 ± 5% (CD 222/208 nm ratio; peptide, 50 mM sodium phosphate).
With `CAGCCAACCAATCACAGTCGACCCAATCTCTGCTGACCGGACC (dsDNA)` the Kd was less than 100 nM (HapB/HapC/HapE/HapX HapX 24-158; SPR; double-stranded DNA, one strand shown; HapX on preformed CBC:DNA).
`CAAATTCTTTAATTGTTGCTATTATATAATTTTTAAAATTAAAAATATAATCTTTAGACTTGAATTTGATTCTGTATTCACGCCCTCAATAGACGGTAAAATAAGAAAATTGTTTATATATTGTCTCCGTAGTGTTATTATACGAAATAAAAGATTTTAGGAAAAGTCGTTATATCATGCTATACCTATTCTTTGTGGTATAATTGCAAGAGGTTTAATCCG (dsDNA)` has a K1/2 of 50 nM (Aspartate aminotransferase; EMSA; double-stranded DNA, one strand shown; underestimates first site affinity).
The kcat/Km of `OXA-48 (Klebsiella pneumoniae, UniProt Q6XEC0)` is reported as 900000 M⁻¹ s⁻¹ (C[C@@H](O)[C@H]1C(=O)N2C(C(=O)O)=C(SCCN=CN)C[C@H]12; steady-state kinetics; pH 7.2, 30 °C).
The AUC of `COc1cccc2c1C(=O)c1c(O)c3c(c(O)c1C2=O)C[C@@](O)(C(=O)CO)C[C@@H]3O[C@H]1C[C@H](NC(=O)[C@@H]2CCCN2C(=O)CNC(=O)[C@H](CC(C)C)NC(=O)[C@H](C)NC(=O)CP(=O)(O)O)[C@H](O)[C@H](C)O1` is reported as 388 µM·h (mouse, E0771 tumour-bearing, kidney; intravenous, 92 µmol/kg).
`TTCTAATTGCCTATGACTTTTTTTAGATAATAAATCTCTCATGAATATCTTTCTCTCTTTATAAATTATCGGATTAAACCTCTTGCAATTATACCACAAAGAATAGGTATAGCATGATATAACGACTTTTCCTAAAATCTTTTATTTCGTATAATAACACTACGGAGACAATATATAAACAATTTTCTTATTTTACCGTCTATTGAGGGCGTGAATACAGAATC (dsDNA)`: binding “binds” (Aspartate aminotransferase; DNase I footprinting; double-stranded DNA, one strand shown; together with: CaCl2 1 mM, MgCl2 10 mM).
For `N=C(N)NCCC[C@@H]1NC(=O)[C@H](CCCCNC(=O)CCOCCOCCOCCOCCNC(=O)CC[C@H](NC(=O)CCOCCOCCOCCOCCNC(=O)c2ccc(NN)nc2)C(=O)NCCOCCOCCOCCOCCC(=O)NCCCC[C@@H]2NC(=O)[C@@H](Cc3ccccc3)NC(=O)[C@H](CC(=O)O)NC(=O)CNC(=O)[C@H](CCCNC(=N)N)NC2=O)NC(=O)[C@@H](Cc2ccccc2)NC(=O)[C@H](CC(=O)O)NC(=O)CNC1=O` [technetium-99m labelled], the tumour uptake was 6 to 12.5 %ID/g (athymic nude mouse, U-87 MG xenograft; 120 min).
The Tmax of `COc1cccc2c1C(=O)c1c(O)c3c(c(O)c1C2=O)C[C@@](O)(C(=O)CO)C[C@@H]3O[C@H]1C[C@H](NC(=O)[C@H](CC(C)C)NC(=O)[C@H](C)NC(=O)[C@H](CC(C)C)NC(=O)CCNC(=O)CCC(=O)O)[C@H](O)[C@H](C)O1` is reported as 5 min (mouse, E0771 tumour-bearing, heart; intravenous, 92 µmol/kg).

For quick reference, copied from above:
For `N=C(N)NCCC[C@@H]1NC(=O)[C@H](CCCCNC(=O)CNC(=O)CNC(=O)CNC(=O)CC[C@H](NC(=O)CCOCCOCCOCCOCCNC(=O)c2ccc(NN)nc2)C(=O)NCC(=O)NCC(=O)NCC(=O)NCCCC[C@@H]2NC(=O)[C@@H](Cc3ccccc3)NC(=O)[C@H](CC(=O)O)NC(=O)CNC(=O)[C@H](CCCNC(=N)N)NC2=O)NC(=O)[C@@H](Cc2ccccc2)NC(=O)[C@H](CC(=O)O)NC(=O)CNC1=O` [technetium-99m labelled], the tissue uptake was 0.56 ± 0.13 %ID/g (γ-counting; female athymic nude mice, U-87 MG xenograft, blood; intravenous, 1 h).
